# Results pooled from the literature.
# Each numbered part is a random draw from the data of one study; scales do not carry over between parts. Values joined by “and” are separate records of one study, mostly repeats; a detail may differ.
# Sequence of UniProt Q8TDX7 (whole entry, looked up): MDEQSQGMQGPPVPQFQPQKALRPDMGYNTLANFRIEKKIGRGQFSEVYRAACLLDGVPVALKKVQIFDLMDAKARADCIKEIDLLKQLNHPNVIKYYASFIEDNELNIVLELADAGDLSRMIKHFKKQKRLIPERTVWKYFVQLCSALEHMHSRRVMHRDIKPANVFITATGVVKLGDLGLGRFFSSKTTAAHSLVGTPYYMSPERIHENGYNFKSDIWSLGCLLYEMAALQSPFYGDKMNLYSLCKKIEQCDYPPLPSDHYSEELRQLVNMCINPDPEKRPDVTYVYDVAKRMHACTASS
# Sequence of UniProt P00519 (whole entry, looked up): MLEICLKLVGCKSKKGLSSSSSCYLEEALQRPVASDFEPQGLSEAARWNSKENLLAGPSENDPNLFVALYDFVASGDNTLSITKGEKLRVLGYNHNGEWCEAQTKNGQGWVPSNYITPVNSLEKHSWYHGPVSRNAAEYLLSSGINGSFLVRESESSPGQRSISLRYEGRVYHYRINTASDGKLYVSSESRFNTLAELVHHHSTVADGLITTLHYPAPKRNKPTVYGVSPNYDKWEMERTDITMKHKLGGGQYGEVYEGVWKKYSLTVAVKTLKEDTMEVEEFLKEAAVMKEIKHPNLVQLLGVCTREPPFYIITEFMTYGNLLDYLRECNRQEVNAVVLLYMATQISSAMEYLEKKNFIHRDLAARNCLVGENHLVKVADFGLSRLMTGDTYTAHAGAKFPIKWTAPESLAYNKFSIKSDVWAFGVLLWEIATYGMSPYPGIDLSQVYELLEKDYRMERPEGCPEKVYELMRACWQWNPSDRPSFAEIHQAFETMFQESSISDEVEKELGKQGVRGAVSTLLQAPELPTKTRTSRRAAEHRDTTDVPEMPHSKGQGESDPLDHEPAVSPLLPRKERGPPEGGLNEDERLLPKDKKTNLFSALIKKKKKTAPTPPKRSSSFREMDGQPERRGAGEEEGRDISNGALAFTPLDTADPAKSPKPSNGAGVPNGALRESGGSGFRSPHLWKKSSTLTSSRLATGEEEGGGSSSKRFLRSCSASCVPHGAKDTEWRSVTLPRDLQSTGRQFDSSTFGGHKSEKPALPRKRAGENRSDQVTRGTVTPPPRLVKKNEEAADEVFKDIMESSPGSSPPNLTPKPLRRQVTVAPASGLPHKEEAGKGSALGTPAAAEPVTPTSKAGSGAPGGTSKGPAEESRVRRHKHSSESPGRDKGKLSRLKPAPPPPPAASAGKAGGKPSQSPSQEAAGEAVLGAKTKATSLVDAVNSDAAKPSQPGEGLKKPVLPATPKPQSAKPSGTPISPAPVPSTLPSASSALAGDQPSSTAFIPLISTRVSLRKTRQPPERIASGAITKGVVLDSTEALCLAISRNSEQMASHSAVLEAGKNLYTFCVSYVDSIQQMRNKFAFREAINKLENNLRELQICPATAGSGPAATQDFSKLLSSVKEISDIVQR
# Sequence of UniProt Q08345 (whole entry, looked up): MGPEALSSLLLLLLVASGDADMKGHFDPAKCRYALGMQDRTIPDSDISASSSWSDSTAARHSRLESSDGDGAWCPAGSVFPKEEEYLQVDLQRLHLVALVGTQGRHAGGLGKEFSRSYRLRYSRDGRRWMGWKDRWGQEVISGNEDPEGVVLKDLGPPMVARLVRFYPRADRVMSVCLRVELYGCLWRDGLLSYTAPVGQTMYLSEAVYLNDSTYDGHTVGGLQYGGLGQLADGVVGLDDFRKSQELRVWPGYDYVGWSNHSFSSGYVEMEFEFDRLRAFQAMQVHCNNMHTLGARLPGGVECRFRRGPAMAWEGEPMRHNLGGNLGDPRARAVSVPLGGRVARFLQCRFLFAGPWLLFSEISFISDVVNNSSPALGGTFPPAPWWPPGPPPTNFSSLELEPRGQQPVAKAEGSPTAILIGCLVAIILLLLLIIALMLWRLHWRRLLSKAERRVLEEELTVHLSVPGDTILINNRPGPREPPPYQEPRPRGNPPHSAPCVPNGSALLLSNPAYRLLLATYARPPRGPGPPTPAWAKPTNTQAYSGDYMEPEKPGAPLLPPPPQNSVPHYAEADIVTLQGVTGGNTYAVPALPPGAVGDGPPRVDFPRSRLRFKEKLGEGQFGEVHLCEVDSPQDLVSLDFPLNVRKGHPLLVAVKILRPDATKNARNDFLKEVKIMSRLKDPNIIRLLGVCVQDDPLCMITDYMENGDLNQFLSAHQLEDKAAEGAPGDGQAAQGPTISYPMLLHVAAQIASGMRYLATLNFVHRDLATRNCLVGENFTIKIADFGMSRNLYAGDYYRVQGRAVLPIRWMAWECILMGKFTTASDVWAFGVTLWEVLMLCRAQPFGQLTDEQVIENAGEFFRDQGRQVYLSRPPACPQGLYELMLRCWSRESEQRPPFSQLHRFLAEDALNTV
# Sequence of UniProt Q13043 (whole entry, looked up): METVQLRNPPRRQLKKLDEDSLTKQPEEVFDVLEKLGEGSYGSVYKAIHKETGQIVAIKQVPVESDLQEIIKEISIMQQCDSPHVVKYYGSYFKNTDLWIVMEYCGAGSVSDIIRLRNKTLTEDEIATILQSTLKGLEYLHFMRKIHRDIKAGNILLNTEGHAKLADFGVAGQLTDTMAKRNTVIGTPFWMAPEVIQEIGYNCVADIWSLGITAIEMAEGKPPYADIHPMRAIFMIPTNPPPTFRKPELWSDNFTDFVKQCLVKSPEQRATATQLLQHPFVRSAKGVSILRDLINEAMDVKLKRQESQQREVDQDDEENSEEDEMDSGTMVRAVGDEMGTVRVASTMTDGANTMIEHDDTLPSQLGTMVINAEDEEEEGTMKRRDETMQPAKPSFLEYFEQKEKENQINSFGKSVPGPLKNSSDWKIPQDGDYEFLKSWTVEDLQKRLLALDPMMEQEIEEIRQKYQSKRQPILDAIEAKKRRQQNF
# Sequence of UniProt P50750 (whole entry, looked up): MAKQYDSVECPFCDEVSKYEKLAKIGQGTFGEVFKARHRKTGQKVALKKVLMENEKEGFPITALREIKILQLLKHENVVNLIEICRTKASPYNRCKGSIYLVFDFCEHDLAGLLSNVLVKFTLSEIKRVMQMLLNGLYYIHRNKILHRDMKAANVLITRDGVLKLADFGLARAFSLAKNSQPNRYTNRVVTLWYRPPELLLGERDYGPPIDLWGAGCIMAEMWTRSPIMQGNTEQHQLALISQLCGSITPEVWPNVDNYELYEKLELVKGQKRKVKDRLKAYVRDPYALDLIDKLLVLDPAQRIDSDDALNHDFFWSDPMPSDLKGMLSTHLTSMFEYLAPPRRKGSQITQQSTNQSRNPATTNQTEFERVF
# Sequence of UniProt P11802 (whole entry, looked up): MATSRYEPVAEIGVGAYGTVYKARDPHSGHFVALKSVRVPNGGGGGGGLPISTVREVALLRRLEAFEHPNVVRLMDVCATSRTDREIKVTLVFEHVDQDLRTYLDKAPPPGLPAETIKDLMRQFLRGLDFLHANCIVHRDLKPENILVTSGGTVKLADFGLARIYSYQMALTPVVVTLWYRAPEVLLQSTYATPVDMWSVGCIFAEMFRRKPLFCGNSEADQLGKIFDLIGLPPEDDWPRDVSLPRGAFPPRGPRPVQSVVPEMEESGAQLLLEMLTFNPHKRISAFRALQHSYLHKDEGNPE

# Series 1
# SMILES: O=C(NCc1ncc(C(F)(F)F)cc1Cl)c1ccc2c(c1)C1(CCS(=O)(=O)CC1)[C@@H](C1CC1)N2S(=O)(=O)c1ccc(F)cc1
# Effect on: cell-free assay
# Technique: competition with immobilised ligand
# Concentration: 1 µM
target,remaining binding
"NEK7 (Homo sapiens, UniProt Q8TDX7)",65%
"CDK9 (Homo sapiens, UniProt P50750)",100%
"DDR1 (Homo sapiens, UniProt Q08345)",100%
"MAP4K4 (Homo sapiens, UniProt O95819)",100%
"Cyclin-dependent kinase 4, with cyclin D1 (CDK4, Homo sapiens, UniProt P11802)",80%
"Tyrosine-protein kinase ABL1, phosphorylated (ABL1, Homo sapiens, UniProt P00519)",86%
"STK4 (Homo sapiens, UniProt Q13043)",86%

# Series 2
# Cell line: mouse MPNST tumor cells
# Technique: high-content nuclear imaging
# Item: cell number
# Concentration: 10 µM
# Time: 12 h
# Setting: mean of 2 replicates
# Baseline: plate mean
# Direction: higher = more cells
SMILES,nuclei count
Nc1nc(N)nc(-c2cc(Cl)ccc2Cl)n1,0.939 z-score and 0.525 z-score
CNc1oc(-c2cccc3ccccc23)nc1C#N,-0.247 z-score
CN(C)CCOc1ccc(/C(=C(/CCCl)c2ccccc2)c2ccccc2)cc1,-4.84 z-score
CCOC(=O)c1ccc(NC2CCCCC2)c(N)c1,0.716 z-score
CCN(CC)C(=O)C1(c2ccccc2)CC1CN (stereo not drawn),2.26 z-score
O=C(NCCCN1CCOCC1)c1cnn2c(-c3ccccc3)cc(-c3ccccc3)nc12,4.72 z-score
COc1cc2c(cc1OC)-c1c/c(=N\c3c(C)cc(C)cc3C)n(C)c(=O)n1CC2,0.682 z-score
CC1(C)S[C@@H]2[C@H](NC(=O)[C@H](C(=O)O)c3ccsc3)C(=O)N2[C@H]1C(=O)O,1.1 z-score
CC(=O)Nc1ccc(NC(=S)NC(=O)c2ccc(C(C)(C)C)cc2)cc1,0.725 z-score
COc1cccc(OC)c1C(=O)N[C@@H]1C(=O)N2[C@@H]1SC(C)(C)[C@@H]2C(=O)O,0.108 z-score
Cc1coc2c1C(=O)C(=O)c1c-2ccc2c(C)cccc12,-0.684 z-score

# Series 3
# Target: High affinity nerve growth factor receptor (NTRK1, Homo sapiens, UniProt P04629)
# Sequence of UniProt P04629 (whole entry, looked up): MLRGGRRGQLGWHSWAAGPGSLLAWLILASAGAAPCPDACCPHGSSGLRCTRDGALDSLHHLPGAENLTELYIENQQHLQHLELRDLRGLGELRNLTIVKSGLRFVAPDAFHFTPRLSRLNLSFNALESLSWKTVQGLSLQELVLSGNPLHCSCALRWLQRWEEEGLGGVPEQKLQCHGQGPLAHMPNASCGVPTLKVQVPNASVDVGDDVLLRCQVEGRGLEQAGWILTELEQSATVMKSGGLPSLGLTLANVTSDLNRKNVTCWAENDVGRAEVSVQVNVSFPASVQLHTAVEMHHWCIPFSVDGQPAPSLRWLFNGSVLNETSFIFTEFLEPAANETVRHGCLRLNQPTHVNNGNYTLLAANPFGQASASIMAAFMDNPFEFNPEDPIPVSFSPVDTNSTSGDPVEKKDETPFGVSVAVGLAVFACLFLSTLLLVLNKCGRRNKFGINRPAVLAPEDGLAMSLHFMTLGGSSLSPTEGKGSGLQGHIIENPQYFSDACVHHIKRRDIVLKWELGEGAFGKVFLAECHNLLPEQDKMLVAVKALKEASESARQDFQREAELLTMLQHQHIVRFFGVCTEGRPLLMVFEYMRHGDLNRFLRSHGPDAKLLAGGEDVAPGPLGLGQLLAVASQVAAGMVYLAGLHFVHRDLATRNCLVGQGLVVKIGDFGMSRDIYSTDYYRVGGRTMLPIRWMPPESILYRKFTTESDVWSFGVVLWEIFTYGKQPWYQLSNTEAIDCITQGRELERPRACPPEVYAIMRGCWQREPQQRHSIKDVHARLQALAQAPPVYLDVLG
# Effect on: enzyme activity
# Mode: inhibitor
# Concentration: 0.5 µM
# Baseline: control
Structure (SMILES),remaining activity [%]
COc1ccc(-c2cnc3c(-c4ccsc4)cnn3c2)cc1,93.2
COc1cc2ncnc(N3CCN(C(=O)Nc4ccc(Oc5ccccc5)cc4)CC3)c2cc1OC,90.6
CC(C)[C@H](CO)Nc1nc(Nc2cccc(Cl)c2)c2ncn(C(C)C)c2n1,67.3
O=C1NC(=O)/C(=C/c2ccc3nccnc3c2)S1,94.2
COc1cc2ncnc(Nc3ccc(OCc4ccccc4)cc3)c2cc1OC,97.1
CC(=O)O/N=C1/C(c2c(O)[nH]c3cc(Br)ccc23)=Nc2ccccc21,54.7
COc1ccc(Cl)cc1NC(=O)Nc1cc(C)nc2ccccc12,92.5
Nc1[nH]nc2nnc(-c3c(-c4ccccc4)nn4ccccc34)cc12,101
O=C(Nc1ccc(Cl)cc1)c1ccccc1NCc1ccncc1,95.5
CCN1/C(=C/C(C)=O)Sc2ccc(OC)cc21,85.7
CCOc1cc2ncnc(Nc3cccc(Br)c3)c2cc1OCC,89.6

# Single results of other studies
Structure (SMILES),assay,system,conditions,how to read,quantity,value
CC(=O)N[C@@H](Cc1c[nH]c2ccccc12)C(=O)N[C@@H](CCC(=O)C=[N+]=[N-])C(=O)OC(C)C,UPLC-MS/MS,"EL4 tumor, C57BL/6 CES1-/- mice, tumor","subcutaneous, 0.3 mg/kg DON equivalent daily, 5 days",higher = more metabolite,sedoheptulose 7-phosphate level,1.4e+06 a.u. and 1.44e+06 a.u. and 1.39e+06 a.u. and 1.6e+06 a.u. and 1.26e+06 a.u. and 1.86e+06 a.u.

# Some of these lines once more (series 3):
Structure (SMILES),remaining activity [%]
Nc1[nH]nc2nnc(-c3c(-c4ccccc4)nn4ccccc34)cc12,101
O=C(Nc1ccc(Cl)cc1)c1ccccc1NCc1ccncc1,95.5
